Published values of several laboratories.
Lines come from different studies, so protocols differ.
Cell line: 786-0

SMILES	read-out	method	concentration	time	measurement	value
O=C1Nc2ccccc2/C1=N\Nc1nnc2n1N=C(c1ccc(Cl)cc1)CS2	cell growth or viability	SRB	10 µM	–	inhibition	12%
COc1cc(CNC(=O)C[C@H](C)CCC=C(C)C)ccc1OCc1cn(-c2ccc(F)cc2)nn1	–	SRB	10 µM	48 h	growth	68.2%
CCC(=C(c1ccc(Cl)cc1)c1ccc(OCCCN(C)C)cc1)c1ccc(OC)cc1	cell growth or viability	–	–	–	GI50	0.77 µM
C=C1C(=O)[C@@]23CC[C@@H]4[C@](C)(COC(C)=O)CCC[C@@]4(CO)[C@@H]2[C@@H](O)C[C@@H]1C3	cell growth or viability	MTT	–	–	IC50	> 20 µM
O=C(/C=C/c1ccc2c(c1)C(=O)N(CCCc1ccccc1)CC2)NO	cell growth or viability	SRB	–	72 h	IC50	3.83 µM
CC(=O)OC[C@]1(C)CCC[C@]2(COC(C)=O)[C@@H]1CC[C@@]13C[C@@H](C[C@H](O)[C@H]12)[C@@H](C)C3=O	cell growth or viability	MTT	–	–	IC50	4.3 µM
CC(=C(c1ccc(O)cc1)c1ccc(Cl)cc1)c1ccc(Cl)cc1	cell growth or viability	–	–	–	GI50	0.66 µM
COc1cc(CNC(=O)C[C@H](C)CCC=C(C)C)ccc1OCc1cn(-c2ccccc2)nn1	–	SRB	10 µM	48 h	growth	113%
CC(=O)OC[C@@]12CCC[C@@](C)(CO)[C@H]1CC[C@@]13C[C@@H](C[C@H](O)[C@H]12)[C@H](C)C3=O	cell growth or viability	MTT	–	–	IC50	1.5 µM
COc1cc(CNC(=O)C[C@H](C)CCC=C(C)C)ccc1OCc1cn(-c2ccc(Cl)cc2Cl)nn1	–	SRB	10 µM	48 h	growth	38.9%
CC(=O)OC[C@]1(C)CCC[C@]2(C)[C@@H]1CC[C@@]13C[C@@H](C[C@H](O)[C@H]12)[C@H](C)C3=O	cell growth or viability	MTT	–	–	IC50	> 20 µM
COc1cc(CNC(=O)C[C@H](C)CCC=C(C)C)ccc1OCc1cn(-c2ccc(Br)cc2)nn1	–	SRB	10 µM	48 h	growth	68.7%
CC/C=C\C/C=C\C/C=C\C/C=C\C/C=C\C/C=C\CCC(=O)Nc1ccn(C2OC(CO)C(O)C2(F)F)c(=O)n1 (stereo not shown)	–	NCI60 screen	–	–	TGI	14.2 µM

Excerpt of the above:
SMILES	read-out	method	concentration	time	measurement	value
COc1cc(CNC(=O)C[C@H](C)CCC=C(C)C)ccc1OCc1cn(-c2ccc(Cl)cc2Cl)nn1	–	SRB	10 µM	48 h	growth	38.9%
CC(=O)OC[C@]1(C)CCC[C@]2(C)[C@@H]1CC[C@@]13C[C@@H](C[C@H](O)[C@H]12)[C@H](C)C3=O	cell growth or viability	MTT	–	–	IC50	> 20 µM
